Measurements gathered from unrelated publications.
Every numbered part comes from another study and shows a few of its results, in no order.

Sample 1 — method: protein binding microarray; molecule type: double-stranded DNA, one strand shown; matrix: in vitro; concentration: not given; baseline: not given; reading: higher = stronger binding; endpoint: E-score
Target: Histone acetyltransferase KAT6A, winged helix 1, GST fusion (KAT6A, Homo sapiens, UniProt Q92794, residues 1-85)
Setting: 8-mer, flanks averaged, mean of 2 arrays, mostly near background
Residues (chain): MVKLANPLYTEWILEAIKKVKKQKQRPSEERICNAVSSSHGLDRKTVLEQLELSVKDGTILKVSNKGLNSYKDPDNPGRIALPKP
ACTCCGGG: 0.111
GAACTTAA: -0.189
AAGTCAGG: 0.00448
TACTCAAA: -0.0794
GACTCAGA: -0.158
CACTGATC: -0.279
ACTATCGC: 0.00368

Other studies, line by line
CBF1 full length, His-tagged: Centromere-binding protein 1, full length, His-tagged (CBF1, Saccharomyces cerevisiae, UniProt P17106, residues 1-351)
Chain of UniProt P17106 (whole entry, looked up): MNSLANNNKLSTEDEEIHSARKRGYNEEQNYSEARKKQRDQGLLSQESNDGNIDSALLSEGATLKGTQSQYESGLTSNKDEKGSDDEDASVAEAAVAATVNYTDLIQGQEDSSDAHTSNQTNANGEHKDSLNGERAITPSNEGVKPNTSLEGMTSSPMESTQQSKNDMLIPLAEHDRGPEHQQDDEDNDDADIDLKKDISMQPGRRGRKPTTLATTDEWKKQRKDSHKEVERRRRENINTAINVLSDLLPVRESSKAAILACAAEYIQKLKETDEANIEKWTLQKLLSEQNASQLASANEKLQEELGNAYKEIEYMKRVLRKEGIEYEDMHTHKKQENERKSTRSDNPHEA
RBFOX2 RRM domain, GST-SBP tag: RNA binding protein fox-1 homolog 2, RRM domain, GST-SBP tag (RBFOX2, Homo sapiens, UniProt O43251-10, residues 100-194)
CBF1 full length, N-terminal tag: Centromere-binding protein 1, full length, N-terminal tag (CBF1, Saccharomyces cerevisiae, UniProt P17106, residues 1-351)
AAATTACTAAGTTGTCACTTAACTTACCCCGTATGAGTCTTGATTCGCTTGACGCTGCTG
fluorescence intensity (CBF1 full length, His-tagged; competition protein-binding microarray; double-stranded DNA, one strand shown, in vitro; 2 µM, whole 60-bp probe, lowest competitor level, together with: Pho4 competitor, 0.05 µM; higher = stronger binding): 70.6 a.u.

GGGAGUUCUACAGUCCGACGAUCUCACGUGACAUCCCAUUCACUCAUCUACACUAGCCCAGUGCUCCCAUUGUCCCCUGCCUCCUCUGUAAUUUUUGCCCCUUCCAGGGUACGGAAUGUGUCAGUGCAUUUUCUGGAAUUCUCGGGUGCCAA
RBNS enrichment (R) (RBFOX2 RRM domain, GST-SBP tag; RNA Bind-n-Seq; RNA, in vitro; 365 nM, natural RNA segment, single round, ends assumed; baseline: no-protein control, higher = stronger binding): 0.763

GAAATATACCACAGTAACGTGCAGGTAAAACATTAGGTCTTGATTCGCTTGACGCTGCTG
fluorescence intensity (CBF1 full length, N-terminal tag; protein-binding microarray; double-stranded DNA, one strand shown, in vitro; 0.8 µM, whole 60-bp probe, no competitor; higher = stronger binding): 851 a.u.

GGGAGUUCUACAGUCCGACGAUCGUGAGCAGGGAGCAUAAUUAUUGGUUUAUUAUGGUAAUUAUGGUGAUUUUUUAAAUAUCAUGUAAUGUUAAAACGUUUUCUAACAGUUUACUGUUGCUUAUCUCCAAGAUUGGAAUUCUCGGGUGCCAA
RBNS enrichment (R) (RBFOX2 RRM domain, GST-SBP tag; RNA Bind-n-Seq; RNA, in vitro; 365 nM, natural RNA segment, single round, ends assumed; baseline: no-protein control, higher = stronger binding): 0.362

CTATTAGACATTTCCCACGTATACAAATATATTTTCGTCTTGATTCGCTTGACGCTGCTG
fluorescence intensity (CBF1 full length, N-terminal tag; protein-binding microarray; double-stranded DNA, one strand shown, in vitro; 0.8 µM, whole 60-bp probe, no competitor; higher = stronger binding): 510 a.u.

PhoQ, residues 284 288 289 292 302 303 SSTLLI
fold induction (PhoP, residues 12 14 15 18 19 SGWQI (Escherichia coli, UniProt P23836); Sort-seq, measured: YFP reporter; E. coli; PhoQ-PhoP variant library, together with: 10 µM Mg2+; baseline: high Mg2+ state, higher = stronger signaling): 2.16

CTAACGAAGGTTTGTCACGTAACTTACAAGCCAAGTGTCTTGATTCGCTTGACGCTGCTG
fluorescence intensity (CBF1 full length, His-tagged; competition protein-binding microarray; double-stranded DNA, one strand shown, in vitro; 2 µM, whole 60-bp probe, lowest competitor level, together with: Pho4 competitor, 0.05 µM; higher = stronger binding): 105 a.u.

Excerpt of the above (other studies, line by line):
GAAATATACCACAGTAACGTGCAGGTAAAACATTAGGTCTTGATTCGCTTGACGCTGCTG
fluorescence intensity (CBF1 full length, N-terminal tag; protein-binding microarray; double-stranded DNA, one strand shown, in vitro; 0.8 µM, whole 60-bp probe, no competitor; higher = stronger binding): 851 a.u.

AAATTACTAAGTTGTCACTTAACTTACCCCGTATGAGTCTTGATTCGCTTGACGCTGCTG
fluorescence intensity (CBF1 full length, His-tagged; competition protein-binding microarray; double-stranded DNA, one strand shown, in vitro; 2 µM, whole 60-bp probe, lowest competitor level, together with: Pho4 competitor, 0.05 µM; higher = stronger binding): 70.6 a.u.
